Assay results of several laboratories.
Numbered parts are unrelated; each lists some results of a single study. Substitutions count along the parent as printed.

Sample 1 — method: protein binding microarray; molecule type: double-stranded DNA, one strand shown; sample: in vitro; tested at: not given; baseline: not given; reading: higher = stronger binding
Target: Histone acetyltransferase KAT6A, winged helix 2, GST fusion (KAT6A, Homo sapiens, UniProt Q92794, residues 85-181)
Setting: 8-mer, flanks averaged, mean of 2 arrays, mostly near background
Target sequence (chain): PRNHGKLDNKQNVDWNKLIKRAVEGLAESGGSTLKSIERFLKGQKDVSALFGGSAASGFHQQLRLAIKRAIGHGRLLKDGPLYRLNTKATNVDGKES
Strand	E-score
ACAGCGCG	0.0347
ACGATAGG	-0.192
ATAGCTCC	-0.174
AAGATTGT	-0.0908
AACGCCGA	0.143
AGTCGCAT	0.0589
CTTCCTGA	0.147
ACAGATGT	-0.0758
ACCGAGAC	-0.111
ATTAGGAA	0.0684
AGCCGAAC	0.0782
CCAGGCAC	0.0983
ATGGAAAA	0.0735
AAAACCGC	0.0956
ATTGGAAG	-0.0555
ACTCAAGA	-0.0287
TAGCCGAA	-0.0799
CGCGTCCC	0.108
AAGTTTTC	0.139
ATATAACG	0.125
GCCATAGC	0.0348
CGGCGGAG	0.223
AGAACCGA	-0.00424
TCCGTGAA	0.068

Sample 2 — method: DHFR PCA, deep sequencing; sample: yeast; with: (+)-ABA 4.8 µM; baseline: wild-type fitted maximum; reading: higher = stronger binding
Target: ABI1, truncated, D143A, DHFR fusion (Arabidopsis thaliana)
Setting: methotrexate growth selection, single substitutions
Starting sequence: PYL1, truncated, DHFR fusion (Arabidopsis thaliana); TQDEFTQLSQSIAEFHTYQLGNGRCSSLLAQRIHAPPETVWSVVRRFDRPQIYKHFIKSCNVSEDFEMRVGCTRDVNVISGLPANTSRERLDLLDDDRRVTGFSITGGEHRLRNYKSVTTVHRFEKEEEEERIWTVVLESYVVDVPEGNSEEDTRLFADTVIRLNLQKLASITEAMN; partner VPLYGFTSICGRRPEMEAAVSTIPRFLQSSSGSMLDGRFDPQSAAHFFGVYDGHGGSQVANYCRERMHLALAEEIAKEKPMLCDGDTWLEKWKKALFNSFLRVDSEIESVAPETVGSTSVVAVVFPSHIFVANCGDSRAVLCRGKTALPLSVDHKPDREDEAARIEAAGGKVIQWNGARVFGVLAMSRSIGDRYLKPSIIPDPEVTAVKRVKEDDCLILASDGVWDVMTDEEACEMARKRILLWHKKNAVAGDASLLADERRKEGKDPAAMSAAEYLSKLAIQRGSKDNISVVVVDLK
Variant	relative binding score
E89A	-6.13%
S140P	0.848%
Y115L	-0.704%
E127W	53.6%
I133T	83.3%
V136A	19.1%
E174I	13.9%
H122L	4.46%
T173S	74.6%
S9W	52%
R69G	57%
T6E	82%
G21N	65%
A158E	-6.03%
D3A	71.9%
G108A	-2.83%

Sample 3 — method: universal PBM; molecule type: double-stranded DNA, one strand shown; sample: in vitro; tested at: 600 nM; reading: higher = stronger binding
Target: Sal-like protein 4, full length isoform A (SALL4, Homo sapiens, UniProt Q9UJQ4, residues 1-1053)
Chain of UniProt Q9UJQ4 (whole entry, looked up): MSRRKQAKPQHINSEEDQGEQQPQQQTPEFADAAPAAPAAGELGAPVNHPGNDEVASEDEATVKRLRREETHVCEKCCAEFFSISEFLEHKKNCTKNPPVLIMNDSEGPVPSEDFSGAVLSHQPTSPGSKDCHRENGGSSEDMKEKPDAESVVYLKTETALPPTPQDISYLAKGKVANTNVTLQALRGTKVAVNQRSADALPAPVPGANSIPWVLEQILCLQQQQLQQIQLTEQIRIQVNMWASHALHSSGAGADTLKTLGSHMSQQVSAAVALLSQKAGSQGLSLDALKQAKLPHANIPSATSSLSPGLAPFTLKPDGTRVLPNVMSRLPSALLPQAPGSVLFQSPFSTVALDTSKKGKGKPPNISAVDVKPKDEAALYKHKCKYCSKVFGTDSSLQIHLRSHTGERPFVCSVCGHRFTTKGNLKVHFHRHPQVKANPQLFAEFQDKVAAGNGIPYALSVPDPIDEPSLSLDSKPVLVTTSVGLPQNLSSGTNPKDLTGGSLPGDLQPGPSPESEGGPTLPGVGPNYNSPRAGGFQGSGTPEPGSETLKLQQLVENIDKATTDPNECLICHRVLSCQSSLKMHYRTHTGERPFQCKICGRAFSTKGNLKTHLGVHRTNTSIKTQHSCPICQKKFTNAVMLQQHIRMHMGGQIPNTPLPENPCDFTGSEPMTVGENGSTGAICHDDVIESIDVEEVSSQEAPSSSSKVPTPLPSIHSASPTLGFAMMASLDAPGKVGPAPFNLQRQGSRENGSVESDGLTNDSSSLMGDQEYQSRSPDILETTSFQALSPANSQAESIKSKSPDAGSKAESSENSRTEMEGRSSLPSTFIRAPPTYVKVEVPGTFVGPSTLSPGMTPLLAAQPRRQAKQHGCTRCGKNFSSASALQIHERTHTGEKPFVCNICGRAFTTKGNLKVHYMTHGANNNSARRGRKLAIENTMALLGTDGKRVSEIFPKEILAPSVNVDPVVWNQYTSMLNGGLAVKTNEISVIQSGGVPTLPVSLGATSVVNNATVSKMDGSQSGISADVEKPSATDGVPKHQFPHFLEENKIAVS
Setting: 8-mer, flanks averaged, mean of replicates
Strand	E-score
ACTGAGCA	-0.0362
CCCACCAC	-0.222
AAGCTATC	0.133
AGCGTAAC	0.115
TAAACTCA	0.193
AAATTGCC	0.207
TCTGTTCA	0.0156
GACGAGGA	-0.0688
GGTCCAGA	-0.198
GGCATTAC	-0.0338
CCATAGCA	0.106
CACAATAG	0.148
CATCCTAC	0.00571
ACCAAACA	0.252
ACGGGTGG	-0.327
ATTCGACA	0.0626
GTCGATGA	-0.0375
AGCTGGGC	-0.298
CGGTACGA	-0.189
CGATGAAG	0.16
CCTATCGA	0.0938
ACCGGCTG	-0.429
GGCGCACC	-0.383
CACCGTGA	-0.153
GAAGCGGA	-0.199

Sample 4 — method: RNA Bind-n-Seq; molecule type: RNA; sample: in vitro; tested at: 365 nM; baseline: no-protein control; reading: higher = stronger binding
Target: RNA binding protein fox-1 homolog 2, RRM domain, GST-SBP tag (RBFOX2, Homo sapiens, UniProt O43251-10, residues 100-194)
Setting: natural RNA segment, single round, ends assumed
Target sequence (chain): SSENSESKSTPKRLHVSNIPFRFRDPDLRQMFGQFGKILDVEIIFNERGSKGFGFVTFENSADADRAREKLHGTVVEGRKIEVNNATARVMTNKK
Strand	RBNS enrichment (R)
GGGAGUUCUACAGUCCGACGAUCAGUACCUAGAAACACACAAGGCUGCCCAGCCAAAUCUUAAUGUAAAGUAGCUAGAGCCAUGGAAGUACAGUAUGAAUUAAAAAGAAAAAAGUAUUGAACUACAAUAAUAAUGGAAUUCUCGGGUGCCAA	0.363
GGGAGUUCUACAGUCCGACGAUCUCAACUACUAGACAGCCAGGCUAAGCCUUCUCAUUCUGUUCUGAAGAUUCUAAAAAAAUUCGAACCAUCAACAAUAGUAUGUAUAAUUUGAACUUCCAUGAUUGAUCCUUUGGAAUUCUCGGGUGCCAA	0.327
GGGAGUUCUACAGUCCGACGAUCUUCCAAAGGACCCGCGCACUUGGUCACUAGUCUUAGAAGAUGACACGGGGAUGGCAACCAACAGGACUGCUAACACCUGGUGGACCAUUCUGAGUCGAUAGAAGCAGUGGUGGAAUUCUCGGGUGCCAA	0.392
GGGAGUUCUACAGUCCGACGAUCUGACAGGUGGACAUCUGUGUCAUUUUUCCUUGUUCCCUCAUCCAUCCAUCCAUCCAUCCAUCCAUCCAUCCAUCCAUCCAUCCAUUCGUCAGCCUACAUUCAACAAACGCUGGAAUUCUCGGGUGCCAA	1.23
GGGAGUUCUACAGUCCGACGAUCAAGAUUGGGAUUAUCGUCUUCUAAGAGGUUGCUAAUGCCUUUCAUCUUGAAGUUACACAUAACUUCUUACUAGCCAGUAUGGCAAAAGUAGGCAUCUAAAGAAUAUAAAGUGGAAUUCUCGGGUGCCAA	0.298
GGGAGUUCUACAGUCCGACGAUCUGCAAGUCUUCAGGAUGGCACAAAACAAAGGUUAAUGCUUCUUGGGGCACAUUUCUUAGAGGGCUUGCUGAGUGUGUAAAUAUAAUCGACUUUUGUUUGUGUUACAUGACUGGAAUUCUCGGGUGCCAA	0.421
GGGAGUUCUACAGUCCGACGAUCUAUCUAAUUUCAUUCAAACCUCACAACAGUCUUGUGAGGCCCUUAUAUAAUUACUCCCAUUUUGCAGAUGAAGUAACUGAGGCUUAGAAAGGUUAAUAGCACCGGGGAACUGGAAUUCUCGGGUGCCAA	0.62
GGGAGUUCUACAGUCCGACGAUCAUGUAAUUUCACAACACCUAAGGAUUUUUUGGUUGAUCAGGUUACUGUAGAUUUUUACUGAUUGUCCUGGAUGAAUAGACUGUGCUUUUUCUUUUUCUCUCCCUUCCUUCUGGAAUUCUCGGGUGCCAA	1.53
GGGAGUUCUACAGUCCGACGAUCCUUUACCUAGGGGUAUGUUUUCUGCCCUGCUUCCCAGUCCUCAUGAUUAUCUUUAAUACCCUAGGCCUGGAUUGAGAGGCCUUCCUGUUCUAAGCCUACAAGUACUACUUUGGAAUUCUCGGGUGCCAA	0.34
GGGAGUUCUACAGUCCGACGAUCACCAUUUAUUAUACAUAUAAUCUAUUGAAUAUAAAAAGAUUCACCUUGAAAUAAUAUUUGACUAUAUAGGUACAUAUCUGUAAAAGAUGACCACCUUAACUAAAUCAGAUUGGAAUUCUCGGGUGCCAA	0.374
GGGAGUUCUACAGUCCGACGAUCUUUUGUGUAGGGUCAAGUUAUUUUUAUAUGAGUUAAUGUGAAAUUGUAAAUGGAAAUUUUUCCUUAAAAUACAACACAAUGAUGUCUGUAUAAAUCUGUCUGUUUAGAAUUGGAAUUCUCGGGUGCCAA	0.481
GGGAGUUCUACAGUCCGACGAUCUGUGCAUCCCCCACAAAAACAUGAGUGCCCCUCUGUGUGGCCUCUAACCCUCUGCACAGCCCUUCUGGGUGGUCCUCACCAGGUCUCUGAGCUGGGUGGGAGGCCAUCCUUGGAAUUCUCGGGUGCCAA	0.188

Sample 5 — method: RNA Bind-n-Seq; molecule type: RNA; sample: in vitro; tested at: 20 nM; setting: 6-mer, flanks averaged, single round; with: 150 mM KCl; baseline: input library; reading: higher = stronger binding
Target: TAR DNA-binding protein 43, full length, His tag (TARDBP, Homo sapiens, UniProt Q13148, residues 1-414)
Strand	6-mer enrichment (R)
CAGUCG	0.833
CAGGAU	0.807
AUUCUU	0.563
UCGGUU	0.662
UAAGGG	2.02
UGAAAA	0.663
AAAGGC	0.766
AGACUC	0.614
UGUGGG	3.66
UACGUC	0.609
UCAAUU	0.595
UCCCUA	0.612
CUGAAG	0.852
GCGUGA	1.56
UCGCCA	0.644

Sample 6 — target: CCNA2, cyclin fold, Cln2 fusion (human); method: yeast growth competition, sequencing; sample: yeast; setting: strong parent motif; baseline: not given; reading: higher = stronger binding
Starting sequence: ORC1 docking peptide (human); PRARKRLELGNLG; partner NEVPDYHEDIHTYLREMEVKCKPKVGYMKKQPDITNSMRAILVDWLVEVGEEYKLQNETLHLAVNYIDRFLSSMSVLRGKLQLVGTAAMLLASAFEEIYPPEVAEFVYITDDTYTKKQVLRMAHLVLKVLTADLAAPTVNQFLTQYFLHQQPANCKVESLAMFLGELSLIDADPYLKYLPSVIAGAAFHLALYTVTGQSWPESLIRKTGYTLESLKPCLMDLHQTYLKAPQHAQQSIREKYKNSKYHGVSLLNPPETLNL
Variant	normalised enrichment score
PRARKRLEGGNLG [L9G]	1.37
PRGRKRLELGNLG [A3G]	0.597
PRARKRLELGNPG [L12P]	5.6
PWARKRLELGNLG [R2W]	3.28
PRARKRLELGCLG [N11C]	5.35
PRHRKRLELGNLG [A3H]	0.999
PRARKRLEIGNLG [L9I]	2.35
PRARKRAELGNLG [L7A]	1.03
PRARKRLETGNLG [L9T]	1.03
PRARKRLELGNTG [L12T]	5.43
PRARKRLEHGNLG [L9H]	1.27
PRARKRLEDGNLG [L9D]	0.458
PRARKALELGNLG [R6A]	1.07
PRARKNLELGNLG [R6N]	1.31
PRAMKRLELGNLG [R4M]	1.66
PRARKRLGLGNLG [E8G]	1.76

For quick reference, copied from above (sample 6):
Variant	normalised enrichment score
PRARKRLEGGNLG [L9G]	1.37
PRGRKRLELGNLG [A3G]	0.597
PRARKRLELGNPG [L12P]	5.6
PWARKRLELGNLG [R2W]	3.28
PRARKRLELGCLG [N11C]	5.35
PRHRKRLELGNLG [A3H]	0.999
PRARKRLEIGNLG [L9I]	2.35
PRARKRAELGNLG [L7A]	1.03
PRARKRLETGNLG [L9T]	1.03
PRARKRLELGNTG [L12T]	5.43
PRARKRLEHGNLG [L9H]	1.27
PRARKRLEDGNLG [L9D]	0.458
PRARKALELGNLG [R6A]	1.07
